Published values from different studies.
Protocols differ between the studies behind these lines. Numbers after ± are the reported error.

SMILES	cell line	test	setting	scale	measurement	value
C#CCN(CC(=O)O[C@H]1[C@H](C)O[C@@H](O[C@H]2[C@H](N(C)C)[C@@H](O)[C@H](O[C@H]3[C@@H](CC=O)C[C@@H](C)[C@@H](O[C@H]4CC[C@H](N(C)C)[C@@H](C)O4)/C=C/C=C/C[C@@H](C)OC(=O)C[C@@H](O)[C@@H]3OC)O[C@@H]2C)C[C@@]1(C)O)C(=O)c1ccc(C(F)(F)F)cc1	HGC-27	Western blot	0.10, 0.45, 0.90 µM, 24 h		cleaved caspase-3 level	increased
FC(F)(F)c1ccc(CNc2nc(NCc3ccccc3)c3ccccc3n2)cc1	SW-403	cell growth or viability	24 h		GI50	3000 nM
COc1ccc([C@@H]2CC(=O)c3c(O)cc(O[C@@H]4O[C@H](CO[C@@H]5O[C@@H](C)[C@H](O)[C@@H](O)[C@H]5O)[C@@H](O[C@H]5O[C@H](CO)[C@@H](O)[C@H](O)[C@H]5O)[C@H](O)[C@H]4O)cc3O2)cc1O	MRC5	trypan blue exclusion	100 µg/mL, 48 h		cell count	10000 ± 668
COC(=O)C1C(C=NO)=Cc2cc3c(cc2C1c1cc(OC)c(OC)c(OC)c1)OCO3 (centres unmarked)	uninfected mouse splenocytes			baseline: splenocyte CC50 over amastigote EC50	selectivity index	> 1.7
CC1=CCC23OC2(C)CCC2C(CN(C)C)C(=O)OC2C13.Cl (centres unmarked)	C6 rat glioma cells		2.5 mg/mL, clonogenic	baseline: control	proliferation reduction	2 fold
Cn1ncc2cc(-c3cncc(Cl)c3N3CCC4(CCNC4=O)CC3)ccc21	LS174T	gene-expression microarray	0.715 µM, 4 or 24 h		number of transcripts altered	660
O=Cc1c(O)ccc2ccccc12	HUVEC	RNA sequencing, refers to: CEBPB	75 µM, 24 h	baseline: DMSO	log2 fold change	2.77
CCOP(=O)(CC(=O)Nc1ccc(S(=O)(=O)N(CC(N)=O)c2ccc(N(CC(N)=O)S(=O)(=O)c3ccc(OC)cc3)c3ccccc23)cc1)OCC	mouse primary cortical neurons	western blot, refers to: PSD95	20 µM, added: amyloid beta		protein expression	increased
CCCCN1C(=O)c2cccc3c(NCCN4CCOCC4)ccc(c23)C1=O	BHK-21	lysosome colocalization, confocal microscopy	0.2 µM, added: LysoTracker Deep Red 0.3 µM		Pearson correlation coefficient	0.89 ± 0.04
Nc1cccc(S(=O)(=O)N2CCCN(S(=O)(=O)c3ccc4c(c3)OCCO4)CC2)c1	H1299		concentration not given		glucose consumption	no effect
Cc1nn(-c2ccc(S(=O)(=O)N[C@@H](CO)CC(C)C)cc2)c2nn3nnnc3nc12	HT-29	AO/EB staining	1 µM, 24 h		apoptotic cells	27.5 ± 4.24%
Cc1cc(C)n2c1C=C1C=CC(CCC(=O)NCCN(C)C)=[N+]1[B-]2(F)F	Colo-26	mitochondrial colocalization, imaging flow cytometry	added: MitoTracker Red	direction not given	bright detail similarity score	0.6 ± 0.3
CCc1nnc(NC(=O)c2cccc(C(=O)Nc3nnc(CC)s3)n2)s1	LDR	silenced GFP reporter derepression, microscopy	overnight	baseline: sodium butyrate	Emax	96%
COc1cc(CNC(=O)C[C@H](C)CCC=C(C)C)ccc1OCc1cn(-c2ccc([N+](=O)[O-])cc2)nn1	M14 melanoma cells	SRB	10 µM, 48 h		growth percent	88.8%
Cc1ccc(C(C)C)cc1.O=C(N=P(c1ccccc1)(c1ccccc1)c1ccccc1)c1ccccn1.[Cl-].[Cl][Ru+]	HCC1806	Transwell Geltrex invasion	IC20, 24 h	baseline: untreated	invasion reduction	70.7%
COc1cc(CNC(=O)C[C@H](C)CCC=C(C)C)ccc1OCc1cn(-c2ccc(F)cc2)nn1	OVCAR-5 ovarian cancer cells	SRB	10 µM, 48 h		growth percent	102%
CC[C@H](C)[C@@H]1NC(=O)[C@H](Cc2cn(CCc3c(C)[nH]c4cc(Cl)cc(Cl)c34)nn2)NC(=O)[C@@H](CC(N)=O)NC(=O)[C@H](CCCNC(=N)N)NC(=O)[C@H](Cc2ccccc2)NC(=O)[C@@H](CC(C)C)NC(=O)[C@H](C)NC(=O)c2cc3cc(c2)C(=O)NC[C@@H](C(=O)N[C@@H](CCCCN)C(N)=O)NC(=O)[C@H](CCCNC(=N)N)NC(=O)[C@H](CCCNC(=N)N)NC(=O)[C@H](CCCNC(=N)N)NC(=O)[C@H](CCCNC(=N)N)NC(=O)[C@H](Cc2ccc4ccccc4c2)NC(=O)[C@H](Cc2ccccc2)NC(=O)[C@H](CCCCNC3=O)NC(=O)[C@H](CC(=O)O)NC1=O	H1299	immunoblot	concentration not given, 12 h		MEK protein level	no effect
COc1cc(CNC(=O)C[C@H](C)CCC=C(C)C)ccc1O	M14 melanoma cells	SRB	10 µM, 48 h		growth percent	95.9%
Cc1cc(C)c(S(=O)(=O)N(CC(=O)O)c2ccc(Nc3ccnc(N4CCCC4)n3)cc2)c(C)c1	HCT-116 Cdc37 wild type	PI staining	10 or 25 µM, 24 h		G0-G1 phase cells	increased
C[C@@H](O)[C@H](NC(=O)[C@@H]1CSSC[C@H](NC(=O)[C@@H](Cc2ccccc2)NC(=O)CN2CCN(CC(=O)O)CCN(CC(=O)O)CCN(CC(=O)O)CC2)C(=O)N[C@@H](Cc2ccc(O)cc2)C(=O)N[C@H](Cc2c[nH]c3ccccc23)C(=O)N[C@@H](CCCCN)C(=O)N[C@@H]([C@@H](C)O)C(=O)N1)C(=O)O	AR-42J	radioligand uptake	concentration not given, 2 h		internalized fraction of cell activity	53.1 ± 1.83%
Cc1sc2c(c1C)C(c1ccc(Cl)cc1)=N[C@@H](CC(=O)N1CCN(CC3CCN(C(=O)CN4CCC(Nc5cccc6c5cc(C#CCNc5ccc(P(C)(C)=O)cc5)n6CC(F)(F)F)CC4)CC3)CC1)c1nnc(C)n1-2	BxPC-3	p53 reporter gene	10 µM, 24 h	baseline: DMSO	reporter activity	40 fold
Cc1ccc(C(C)C)cc1.[Cl-].[Cl][Ru+].[Ru+].c1ccc(-c2cn(CCCCOc3ccccc3-c3nc4ccccc4s3)nn2)nc1	MCF7	PI flow cytometry, refers to: S phase	4 µM, 24 h		cells in phase	10.1%
C[C@@H]1NC(=O)[C@H](CCC(=O)O)NC(=O)CNC(=O)[C@H](CC(=O)O)NC(=O)CNC(=O)[C@H](CCCCNC(=O)CCCCCNC(=O)[C@H](CS)NC(=O)CCCCCNC(=O)CN2CCN(CC(=O)O)CCN(CC(=O)O)CCN(CC(=O)O)CC2)NC(=O)[C@@H](Cc2ccc(O)cc2)NC1=O [gallium-68 labelled]	CL1-5		5 to 90 min, 37 °C	baseline: added radioactivity	cellular uptake	< 1%

A few entries again:
SMILES	cell line	test	setting	scale	measurement	value
FC(F)(F)c1ccc(CNc2nc(NCc3ccccc3)c3ccccc3n2)cc1	SW-403	cell growth or viability	24 h		GI50	3000 nM
COc1ccc([C@@H]2CC(=O)c3c(O)cc(O[C@@H]4O[C@H](CO[C@@H]5O[C@@H](C)[C@H](O)[C@@H](O)[C@H]5O)[C@@H](O[C@H]5O[C@H](CO)[C@@H](O)[C@H](O)[C@H]5O)[C@H](O)[C@H]4O)cc3O2)cc1O	MRC5	trypan blue exclusion	100 µg/mL, 48 h		cell count	10000 ± 668
COC(=O)C1C(C=NO)=Cc2cc3c(cc2C1c1cc(OC)c(OC)c(OC)c1)OCO3 (centres unmarked)	uninfected mouse splenocytes			baseline: splenocyte CC50 over amastigote EC50	selectivity index	> 1.7
